Published values pooled from the literature.
Numbered parts are unrelated; each lists some results of a single study. Substitutions count along the parent as printed.

Study 1
Target: Sal-like protein 4, full length isoform B (SALL4, Homo sapiens, UniProt Q9UJQ4-2, residues 1-616)
Method: universal PBM
Molecule type: double-stranded DNA, one strand shown
Sample: in vitro
Tested at: not given
Notes: 8-mer, flanks averaged, mean of replicates
Direction: higher = stronger binding
Quantity: E-score
Target sequence (chain): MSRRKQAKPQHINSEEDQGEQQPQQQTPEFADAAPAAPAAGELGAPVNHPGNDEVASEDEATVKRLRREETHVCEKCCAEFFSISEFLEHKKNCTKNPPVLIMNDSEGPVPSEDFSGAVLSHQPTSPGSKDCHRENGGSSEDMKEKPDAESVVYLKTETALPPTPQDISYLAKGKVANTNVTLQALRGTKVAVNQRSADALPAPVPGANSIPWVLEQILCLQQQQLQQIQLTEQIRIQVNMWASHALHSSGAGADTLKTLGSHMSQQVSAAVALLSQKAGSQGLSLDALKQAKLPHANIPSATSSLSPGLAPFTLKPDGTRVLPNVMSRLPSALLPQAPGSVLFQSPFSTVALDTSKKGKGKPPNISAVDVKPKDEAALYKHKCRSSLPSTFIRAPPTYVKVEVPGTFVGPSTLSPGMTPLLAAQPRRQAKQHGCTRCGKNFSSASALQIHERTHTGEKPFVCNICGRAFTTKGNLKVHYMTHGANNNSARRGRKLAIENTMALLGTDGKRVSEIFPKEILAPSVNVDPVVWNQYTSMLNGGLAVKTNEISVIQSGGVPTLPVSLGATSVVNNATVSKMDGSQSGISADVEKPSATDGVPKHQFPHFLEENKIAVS
GAACACTC: -0.0398
GGCCAGGA: -0.236
GATCTTAC: 0.0501
CCATCAGC: -0.151
ACCCTGAA: -0.00688
CCGATTTC: -0.213
CGAGCAAG: -0.24
AATAGAAG: 0.141
TGGTTTAA: 0.206
GCGTTGTA: 0.145
GGCAGTAC: 0.00146
CCGGGGCC: -0.385
TTAGCTAA: 0.211
CTTCGGCA: -0.233
AAGCTGGC: -0.171
ATTCGGTG: -0.0249
TCTCCCCA: -0.0584
CACCACAG: -0.0766

Study 2
Target: Hepatocyte nuclear factor 3-alpha (Foxa1, Mus musculus, UniProt P35582, residues 1-468, full length assumed)
UniProt P35582, sequence (whole entry, looked up): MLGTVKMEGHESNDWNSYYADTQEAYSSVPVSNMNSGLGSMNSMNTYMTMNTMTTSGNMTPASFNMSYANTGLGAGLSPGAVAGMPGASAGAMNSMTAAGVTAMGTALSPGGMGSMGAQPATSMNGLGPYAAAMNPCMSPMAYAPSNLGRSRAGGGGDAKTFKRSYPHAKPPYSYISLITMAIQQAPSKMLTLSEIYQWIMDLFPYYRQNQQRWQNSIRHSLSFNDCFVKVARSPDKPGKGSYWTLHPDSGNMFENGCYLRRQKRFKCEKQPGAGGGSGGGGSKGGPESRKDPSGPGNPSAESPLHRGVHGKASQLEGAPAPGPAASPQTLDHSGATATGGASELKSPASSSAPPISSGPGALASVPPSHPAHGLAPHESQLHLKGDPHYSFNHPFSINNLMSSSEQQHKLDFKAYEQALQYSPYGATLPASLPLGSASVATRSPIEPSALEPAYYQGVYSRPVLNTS
Method: EMSA with sequencing
Molecule type: double-stranded DNA, one strand shown
Sample: in vitro
Tested at: 10 and 20 nM
Notes: whole designed probe, mean of two concentrations, ends assumed
Reference: negative control set to 0
Direction: higher = stronger binding
Quantity: normalised bound fraction
Constant ends, left off below: GTGAGCGGTGCCCATTGATGGGGAAC … TTTCACTGGGATCGTGGGGAC
TGCTGCTTATTCATGAATTTTCAAATGGAAATATCTCTCCCATTATTATCCCCTTCTTGTGAGTCAGGCCCCATCTTGCAAATTTGCAGCTGAGTAATTTTACGGAACATTAGCAGCAATTAGATAATTGGTGCCCCGGATCAGCCCACCCACAGCTGTGAATGAATATGGGCTGCATGAGTGTCACCTGGTG: -0.0689 ratio
CTTTGCAAAGCTATGCAAATTATAAAGCAATTCATTATGGTTAAGAAAAGAGTTTTTCCCAAAGAGCTGCAAATACTCACCAGTGACACAAAGTAATCTAAGACCCAAAGATGGAACCAAAAGATAGTTCTTGTCTTTAGAGGAAGAATATCCAAGATGCATTGGACAGAACAAATAATACCCTAGTGTGTTA: 0.224 ratio
TGTGTTCAGTAAACTACATTTAAAAAAACTAGGAAAGACTATACTTTCAGGGGTCATTTCTATCTGAACAACCTGCTCCTGAATGACTAATGGGTAAATAATGAAATTAAGGCAGAAATAAACAAGTTCTTTGAAAACAGTGAGAACAAAGACACAACGTACCAAAATCTCTGGGACACAGCTAAAGCAGTGT: 0.172 ratio
ATACACATAAACCAAGAGAAACAAAATACAATATTTATGTGTATATCTTTCTCATTGAACTTCACATTGCTAGAAGTATTTTTCTAAAGACAATGTAAACATGTCATTTCACTACTAAAAATTTTTTAGTAGATAATATCAATTGCTTTAAGAATAAAACAATTTTTAAAATAATTATATGAAAAAAGTTCTC: 0.335 ratio
CACCGCGCTCGCACGGCTTTGTCCGTGCTACAAAGCAGCCTGTTAAACTATTGGAACTAATGCGCCGCAGCTGCGCGAGTGACTTCTGCTGCTTATGTACATAAAAAGTCCTGGGGCGACGGCTTAACCATCAGATGCCTGCTGCTGGGTTGTTTGGCTAGTCTTTCCATTTGCTTATTCCTGAATCCAAAGG: 0.336 ratio

Study 3
Target: CCNA1, cyclin fold, Cln2 fusion (human)
Method: yeast growth competition, sequencing
Sample: yeast
Notes: weak parent motif
Reference: not given
Direction: higher = stronger binding
Quantity: normalised enrichment score
Parent: MASTL docking peptide (human); PMIAKNLMCELDE
K5Y: -0.133
L11Q: 0.256
D12L: 0.0454
A4Y: -0.188
M8S: 0.171
L11Y: 0.186
K5L: 0.0855
L11K: 0.156
C9K: 0.0488
K5P: -0.236
D12E: 0.0636
L7Q: -0.0352
L11T: 0.162
L11P: -0.14
M8Y: 0.0888
K5H: -0.121

Study 4
Target: ABI1, truncated, D143A, DHFR fusion (Arabidopsis thaliana)
Method: DHFR PCA, deep sequencing
Sample: yeast
Notes: methotrexate growth selection, single substitutions
Together with: (+)-ABA 710 µM
Reference: wild-type fitted maximum
Direction: higher = stronger binding
Quantity: relative binding score
Parent: PYL1, truncated, DHFR fusion (Arabidopsis thaliana); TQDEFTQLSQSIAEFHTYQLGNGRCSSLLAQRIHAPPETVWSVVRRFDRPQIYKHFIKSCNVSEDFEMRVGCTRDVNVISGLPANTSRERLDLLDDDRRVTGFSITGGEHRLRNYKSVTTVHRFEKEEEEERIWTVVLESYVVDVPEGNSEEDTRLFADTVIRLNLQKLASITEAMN; partner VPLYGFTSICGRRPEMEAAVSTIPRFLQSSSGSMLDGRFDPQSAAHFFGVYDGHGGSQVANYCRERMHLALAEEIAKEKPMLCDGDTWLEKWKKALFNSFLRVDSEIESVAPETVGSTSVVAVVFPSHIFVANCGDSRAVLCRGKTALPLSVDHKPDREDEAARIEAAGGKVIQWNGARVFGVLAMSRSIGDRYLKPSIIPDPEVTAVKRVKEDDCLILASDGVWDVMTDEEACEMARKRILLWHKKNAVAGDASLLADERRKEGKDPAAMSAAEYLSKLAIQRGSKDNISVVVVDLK
D3A: 102%
E64C: 100%
C60V: 98.3%
E67S: 102%
E64H: 106%
R24A: 97%
Q7V: 106%
A35E: 52.1%
K126R: 109%
S9W: 93%
S140L: -1.94%
R113F: 99.3%
V43F: 94.5%
Y115L: 71.4%
N77D: 96.2%
T6P: 112%
E147L: 96.4%
I79H: 107%
V143I: 67.2%
R46E: 95.4%
T173S: 100%

Study 5
Target: Histone acetyltransferase KAT6A, winged helix 1, GST fusion (KAT6A, Homo sapiens, UniProt Q92794, residues 1-85)
Method: protein binding microarray
Molecule type: double-stranded DNA, one strand shown
Sample: in vitro
Tested at: not given
Notes: 8-mer, flanks averaged, mean of 2 arrays, mostly near background
Reference: not given
Direction: higher = stronger binding
Quantity: E-score
Construct (chain): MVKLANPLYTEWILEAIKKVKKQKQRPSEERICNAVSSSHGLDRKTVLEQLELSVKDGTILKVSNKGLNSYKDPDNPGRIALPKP
GGGGCTAC: -0.00509
ACGAAAGC: 0.0481
ATACCCAT: -0.186
GGGAGCAC: -0.117
ATATTTAA: -0.106
ATTCAAAC: -0.207
GCGATAAA: 0.0461
AGGATGGC: -0.0771
AACCGCGC: 0.354
AGACAGTG: -0.101
CGTTAGCC: 0.163
ATCAGGTA: -0.048
CAGGAATC: -0.223
GTACCGCA: 0.326
AAGAAAAG: -0.203
ACTGTATG: -0.14
CACCCTAA: -0.219

A few entries again (study 3):
D12L: 0.0454
A4Y: -0.188
M8S: 0.171
L11Y: 0.186
K5L: 0.0855
L11K: 0.156
C9K: 0.0488
K5P: -0.236
D12E: 0.0636
L7Q: -0.0352
L11T: 0.162
